Experimental data gathered from unrelated publications.
Each line is one published result; not all experiments were run side by side.
CDK18: Cyclin-dependent kinase 18 (CDK18, Homo sapiens, UniProt Q07002)
CDK18 with cyclin Y: Cyclin-dependent kinase 18, with cyclin Y (CDK18, Homo sapiens, UniProt Q07002)

SMILES	target	test	conditions	scale	endpoint	value
CC(C)=CC1OC(C)(C)C2C=C3C(=O)C(Cl)=CC(O)C3C3C(O)C4OC4C(=O)C132 (stereo not drawn)	CDK18	cell-free assay, competition with immobilised ligand	10 µM		remaining binding	95%
Cc1cnc2nc1Nc1cccc(c1)COC/C=C/COCc1cc(ccc1OCCN1CCOCC1)N2	CDK18	binding	0.1 µM		remaining binding	97%
COc1ccc(C(=O)/C=C/c2ccccc2-c2c[nH]c3ccc(C#N)cc23)c(O)c1	CDK18 with cyclin Y	enzyme activity, inhibitor	20 µM		inhibition	11%
COc1c(Cl)cccc1Nc1c(-c2ccncc2C#C[C@@]2(C)CCCN2C(=O)/C=C/CN(C)C)[nH]c2c1C(=O)NCC2	CDK18	cell-free assay, competition with immobilised ligand	3 µM		remaining binding	99%
CN1CCN(Cc2ccc(-c3ccc(CO[C@H]4CCC[C@@H]4NC(=O)c4cc(-c5cnn(C)c5)cnc4N)cc3)cc2)CC1	CDK18 with cyclin Y	enzyme activity, inhibitor	0.1 µM		inhibition	6%
COc1cc(Nc2nccc(-c3cnn4nc(OC)ccc34)n2)cc(C(F)(F)F)c1	CDK18	binding, competition with immobilised ligand	1 µM		remaining binding	87%
C=CC(=O)N1Cc2nc(-c3cc(-c4cc(Cl)cnc4Cl)c(F)cc3F)n(-c3ccncn3)c2C1	CDK18 with cyclin Y	cell-free assay, inhibitor	1 µM		inhibition	4%
COc1cc(Nc2nc(C)cc(-c3cnn4nc(OC)ccc34)n2)cc(C(F)(F)F)c1	CDK18	inhibitor	1 µM	relative to: control	remaining activity	87%
Nc1ncc(-c2cc(-c3cnn(CC(F)(F)F)c3)ncc2F)nc1C(=O)NC1CNCC(F)C1 (stereo not drawn)	CDK18 with cyclin Y	enzyme activity	1 µM	relative to: DMSO control	remaining activity	88.7%
CN1CC[C@@H](COc2cnc(C#N)cc2-c2ccn3nc(NC(=O)C4CC4)cc3c2)C1	CDK18 with cyclin Y	enzyme activity, inhibitor	1 µM		inhibition	7%
CCN1CCN(Cc2ccc(C(=O)Nc3ccc(C)c(NCc4cnc5[nH]ccc5c4OC)c3)cc2C(F)(F)F)CC1	CDK18	binding, competition with immobilised ligand	1 µM		remaining binding	100%
Cc1ccc(-c2c(/C=C(\C#N)C(=O)NC(C)C)n(CCCO)c3ncnc(N)c23)cc1	CDK18	cell-free assay, competition with immobilised ligand	1 µM		remaining binding	92%
CCn1cc(C(=O)O)c(=O)c2c(N)c(F)c(NC3CCCCC3)cc21	CDK18 with cyclin Y	kinase activity	0.1 µM, with: ATP at Km		inhibition	52.1%
O=C(Cc1ccc(OCc2ccccc2)cc1)NC1(C(=O)O)CCN(C(=O)c2ccc(-c3cccc(Cl)c3)cc2)CC1	CDK18 with cyclin Y	enzyme activity, inhibitor	10 µM		activity vs control	104%
COc1ccc(O)cc1-c1c[nH]c2ncc(-c3cncc(C(=O)N(C)C)c3)cc12	CDK18 with cyclin Y	binding, competition with immobilised ligand	0.2 µM		inhibition	0.4%
C=CC(=O)N1CCc2ccc(-n3c(=O)ccc4cnc5ccc(-c6cnn(C)c6)cc5c43)cc21	CDK18	KINOMEscan	1 µM	relative to: DMSO control	remaining binding	98%
CNC1C[S+]2CC[S+]3CC[S+](C1)[Ru-4]321([N]=C=S)[n]2c3ccc(OC)cc3c3c4c(c5cc(F)c[n+]1c5c32)C(=O)NC4=O (stereo not drawn)	CDK18	KinomeScan	0.1 µM	relative to: untreated	remaining binding	93%
CNC(=O)C1CCN(c2cc(C)c(F)cc2NC(=O)c2ccc(-c3cc(O)ccc3C)c(C)c2)CC1	CDK18	binding, competition with immobilised ligand	1 µM		remaining binding	100%
CNC(=O)C[C@H](Cc1ccc(C#N)cc1)NC(=O)c1cc(-c2ccc(CN[C@H](C)c3ccc(C)cc3)o2)ccc1Cl	CDK18 with cyclin Y	enzyme activity, inhibitor	1 µM		activity vs control	108%
Nc1ncc2c(n1)-c1c([nH]c3ccc(C4=CCOCC4)cc13)CCC2	CDK18	binding, competition with immobilised ligand	1 µM		remaining binding	100%
C=CC(=O)N1CCCC(n2c(=O)c3ncccc3n(Cc3ccc(Oc4ccccc4)cc3)c2=O)C1 (stereo not drawn)	CDK18	cell-free assay, competition with immobilised ligand	1 µM		remaining binding	90%

Repeated from above:
SMILES	target	test	conditions	scale	endpoint	value
COc1cc(Nc2nc(C)cc(-c3cnn4nc(OC)ccc34)n2)cc(C(F)(F)F)c1	CDK18	inhibitor	1 µM	relative to: control	remaining activity	87%
